Experimental data from different studies.
Numbered parts are unrelated; each lists some results of a single study. Positions count from the first letter of the parent shown.
Sequence of UniProt P49137 (whole entry, looked up): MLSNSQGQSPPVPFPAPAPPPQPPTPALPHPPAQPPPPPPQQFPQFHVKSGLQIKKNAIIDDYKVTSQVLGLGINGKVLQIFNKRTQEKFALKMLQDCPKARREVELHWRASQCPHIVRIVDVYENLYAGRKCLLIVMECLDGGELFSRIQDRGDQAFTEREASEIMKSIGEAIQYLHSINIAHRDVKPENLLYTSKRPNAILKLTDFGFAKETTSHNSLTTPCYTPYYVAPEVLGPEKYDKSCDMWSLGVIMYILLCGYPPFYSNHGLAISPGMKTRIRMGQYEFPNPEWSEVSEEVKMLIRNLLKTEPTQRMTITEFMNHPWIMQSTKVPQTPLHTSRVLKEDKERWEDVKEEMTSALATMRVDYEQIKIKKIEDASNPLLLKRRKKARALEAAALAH
Sequence of UniProt P57059 (whole entry, looked up): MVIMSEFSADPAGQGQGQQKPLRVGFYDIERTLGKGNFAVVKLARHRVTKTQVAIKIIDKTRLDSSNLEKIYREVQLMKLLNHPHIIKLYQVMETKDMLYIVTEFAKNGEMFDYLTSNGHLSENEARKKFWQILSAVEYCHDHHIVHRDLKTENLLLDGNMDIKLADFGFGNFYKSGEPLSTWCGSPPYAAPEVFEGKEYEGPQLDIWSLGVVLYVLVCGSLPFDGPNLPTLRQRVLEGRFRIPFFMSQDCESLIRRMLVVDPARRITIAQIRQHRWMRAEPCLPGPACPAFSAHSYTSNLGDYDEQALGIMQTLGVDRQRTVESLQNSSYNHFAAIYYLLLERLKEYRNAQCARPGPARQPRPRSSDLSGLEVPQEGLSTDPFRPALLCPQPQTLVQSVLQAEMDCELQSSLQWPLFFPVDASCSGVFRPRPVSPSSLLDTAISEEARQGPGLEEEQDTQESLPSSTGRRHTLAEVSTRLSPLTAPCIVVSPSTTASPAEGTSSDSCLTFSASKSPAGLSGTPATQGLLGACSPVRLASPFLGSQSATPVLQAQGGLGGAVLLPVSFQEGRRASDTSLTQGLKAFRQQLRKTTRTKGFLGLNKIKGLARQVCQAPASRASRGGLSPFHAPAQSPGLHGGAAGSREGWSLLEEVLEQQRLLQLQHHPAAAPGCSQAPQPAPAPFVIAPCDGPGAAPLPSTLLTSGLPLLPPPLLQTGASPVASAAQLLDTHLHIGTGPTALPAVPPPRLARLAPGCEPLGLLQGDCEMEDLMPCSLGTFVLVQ
Sequence of UniProt P07333 (whole entry, looked up): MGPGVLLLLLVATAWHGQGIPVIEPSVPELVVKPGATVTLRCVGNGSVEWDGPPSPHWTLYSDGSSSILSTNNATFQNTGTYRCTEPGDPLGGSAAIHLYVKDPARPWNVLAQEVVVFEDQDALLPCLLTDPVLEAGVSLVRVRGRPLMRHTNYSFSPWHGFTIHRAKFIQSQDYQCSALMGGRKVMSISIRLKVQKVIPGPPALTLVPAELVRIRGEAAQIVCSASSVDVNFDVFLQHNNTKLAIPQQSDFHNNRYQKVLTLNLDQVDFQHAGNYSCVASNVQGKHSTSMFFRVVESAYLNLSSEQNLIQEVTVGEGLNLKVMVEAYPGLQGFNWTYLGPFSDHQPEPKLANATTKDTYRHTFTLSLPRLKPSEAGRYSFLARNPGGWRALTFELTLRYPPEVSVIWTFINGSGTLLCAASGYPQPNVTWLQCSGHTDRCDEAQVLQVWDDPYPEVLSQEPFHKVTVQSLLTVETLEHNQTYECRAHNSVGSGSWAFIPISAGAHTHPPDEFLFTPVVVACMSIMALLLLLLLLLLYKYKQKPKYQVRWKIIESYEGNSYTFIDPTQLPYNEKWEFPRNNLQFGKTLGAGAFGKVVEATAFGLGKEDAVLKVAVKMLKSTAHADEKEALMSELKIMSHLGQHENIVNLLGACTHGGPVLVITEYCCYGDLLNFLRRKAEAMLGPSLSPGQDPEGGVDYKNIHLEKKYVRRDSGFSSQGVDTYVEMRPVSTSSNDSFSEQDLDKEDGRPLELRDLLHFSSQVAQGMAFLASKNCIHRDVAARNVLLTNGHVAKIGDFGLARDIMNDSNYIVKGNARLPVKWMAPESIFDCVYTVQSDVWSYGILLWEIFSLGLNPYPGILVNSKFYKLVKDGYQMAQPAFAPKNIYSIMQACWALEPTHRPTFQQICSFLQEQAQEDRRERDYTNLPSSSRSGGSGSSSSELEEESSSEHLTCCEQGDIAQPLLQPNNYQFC
Sequence of UniProt O43293 (whole entry, looked up): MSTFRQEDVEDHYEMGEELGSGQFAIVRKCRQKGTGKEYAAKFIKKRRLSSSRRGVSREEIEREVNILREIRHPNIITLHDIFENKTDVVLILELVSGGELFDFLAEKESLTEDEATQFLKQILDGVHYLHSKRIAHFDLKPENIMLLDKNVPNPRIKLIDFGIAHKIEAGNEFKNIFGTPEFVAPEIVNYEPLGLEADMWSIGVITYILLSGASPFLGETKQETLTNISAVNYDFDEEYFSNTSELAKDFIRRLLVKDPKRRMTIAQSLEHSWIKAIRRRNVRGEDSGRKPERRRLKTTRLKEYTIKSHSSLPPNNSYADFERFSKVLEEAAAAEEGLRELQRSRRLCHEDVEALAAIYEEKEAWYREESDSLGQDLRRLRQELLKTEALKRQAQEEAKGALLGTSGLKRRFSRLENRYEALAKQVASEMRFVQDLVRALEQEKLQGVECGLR
Sequence of UniProt P11802 (whole entry, looked up): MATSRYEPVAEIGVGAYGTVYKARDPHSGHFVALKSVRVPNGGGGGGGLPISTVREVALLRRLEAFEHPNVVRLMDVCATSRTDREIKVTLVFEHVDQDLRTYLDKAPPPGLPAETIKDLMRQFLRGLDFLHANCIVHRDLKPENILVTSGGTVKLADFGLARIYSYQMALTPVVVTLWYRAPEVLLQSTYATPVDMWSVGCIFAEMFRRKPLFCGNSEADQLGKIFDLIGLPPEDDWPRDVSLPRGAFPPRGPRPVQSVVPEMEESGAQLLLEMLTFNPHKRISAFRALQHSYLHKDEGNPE
Sequence of UniProt Q9HBY8 (whole entry, looked up): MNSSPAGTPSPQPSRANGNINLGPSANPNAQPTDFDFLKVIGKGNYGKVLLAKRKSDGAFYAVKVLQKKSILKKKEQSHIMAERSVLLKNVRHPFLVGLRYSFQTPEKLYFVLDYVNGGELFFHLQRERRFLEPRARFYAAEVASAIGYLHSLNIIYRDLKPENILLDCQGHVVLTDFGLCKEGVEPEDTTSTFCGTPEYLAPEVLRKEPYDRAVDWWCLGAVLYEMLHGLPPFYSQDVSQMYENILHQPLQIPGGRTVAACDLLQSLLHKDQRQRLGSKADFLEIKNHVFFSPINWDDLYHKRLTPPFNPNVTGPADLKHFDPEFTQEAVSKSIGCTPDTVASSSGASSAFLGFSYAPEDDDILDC

Set 1
Target: Serine/threonine-protein kinase TAO3 (TAOK3, Homo sapiens, UniProt Q9H2K8)
Sequence of UniProt Q9H2K8 (whole entry, looked up): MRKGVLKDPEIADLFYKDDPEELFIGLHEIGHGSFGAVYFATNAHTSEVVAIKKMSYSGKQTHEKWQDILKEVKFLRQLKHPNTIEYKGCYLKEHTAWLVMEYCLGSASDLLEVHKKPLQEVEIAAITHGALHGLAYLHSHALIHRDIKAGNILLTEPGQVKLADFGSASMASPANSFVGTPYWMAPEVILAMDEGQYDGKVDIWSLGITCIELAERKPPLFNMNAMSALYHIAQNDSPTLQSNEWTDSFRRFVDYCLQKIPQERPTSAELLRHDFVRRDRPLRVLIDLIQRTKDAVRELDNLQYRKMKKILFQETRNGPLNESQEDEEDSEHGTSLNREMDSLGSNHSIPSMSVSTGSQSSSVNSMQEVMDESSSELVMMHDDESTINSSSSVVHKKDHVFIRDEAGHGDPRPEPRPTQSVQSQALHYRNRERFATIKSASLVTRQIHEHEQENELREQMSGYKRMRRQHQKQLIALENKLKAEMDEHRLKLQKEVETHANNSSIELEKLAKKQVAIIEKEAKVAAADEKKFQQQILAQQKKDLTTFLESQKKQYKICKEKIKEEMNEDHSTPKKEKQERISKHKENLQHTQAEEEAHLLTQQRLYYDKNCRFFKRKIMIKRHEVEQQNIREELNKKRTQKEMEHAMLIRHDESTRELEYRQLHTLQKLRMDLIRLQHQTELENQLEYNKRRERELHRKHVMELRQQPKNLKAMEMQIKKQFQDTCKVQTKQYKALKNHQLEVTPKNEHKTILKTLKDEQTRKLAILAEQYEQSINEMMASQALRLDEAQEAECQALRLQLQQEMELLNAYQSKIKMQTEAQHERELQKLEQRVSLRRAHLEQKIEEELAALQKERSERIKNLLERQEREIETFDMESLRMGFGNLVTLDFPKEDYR
Effect on: enzyme activity
Action: inhibitor
Tested at: 0.5 µM
Baseline: control
Quantity: remaining activity
COc1ccc(C(=O)Nc2sc3c(c2C(N)=O)CCCC3)cc1OC: 100%
O=C(CCCc1ccc(-c2ccccc2F)cc1)Nc1ccc(O)cc1: 91.4%
O=C1NC(=O)C(c2cn(CCCn3ccnc3)c3ccccc23)=C1Nc1ccccc1: 76.5%
Nc1ccc2ncnc(NCCc3ccc(Oc4ccccc4)cc3)c2c1: 102%
COc1cc2ncnc(Nc3ccc(Oc4ccccc4)cc3)c2cc1OC: 102%
O=S(=O)(c1cccc2cnccc12)N1CCCNCC1: 97.3%
CN(C)c1ccc(C=C2C(=O)Nc3ccccc32)cc1: 95.1%
CNC(=O)c1cc(Oc2ccc(NC(=O)Nc3ccc(Cl)c(C(F)(F)F)c3)cc2)ccn1: 63.5%
COc1ccc(OC)c2c(=S)c3ccccc3[nH]c12: 92.7%
CCOC(=O)c1c(C)[nH]c(/C=C2\C(=O)Nc3ccccc32)c1C: 87.6%
Nc1[nH]nc2nc3ccccc3nc12: 97.1%
O=c1c2ccccc2[nH]c(=S)n1CCN1CCC(=C(c2ccc(F)cc2)c2ccc(F)cc2)CC1: 92.4%
O=C(O)c1ccc2c3c1cccc3c(=O)n1c3ccccc3nc21: 93.1%
CC(C)[C@H](CO)Nc1nc(Nc2cc(N)cc(Cl)c2)c2ncn(C(C)C)c2n1: 86.9%

Set 2
Target: CCND3, cyclin fold, Cln2 fusion (human)
Technique: yeast growth competition, sequencing
Medium: yeast
Notes: weak parent motif
Baseline: not given
Direction: higher = stronger binding
Quantity: normalised enrichment score
Parent: PKMYT1 docking peptide (human); SFEPRNLLSLFED; partner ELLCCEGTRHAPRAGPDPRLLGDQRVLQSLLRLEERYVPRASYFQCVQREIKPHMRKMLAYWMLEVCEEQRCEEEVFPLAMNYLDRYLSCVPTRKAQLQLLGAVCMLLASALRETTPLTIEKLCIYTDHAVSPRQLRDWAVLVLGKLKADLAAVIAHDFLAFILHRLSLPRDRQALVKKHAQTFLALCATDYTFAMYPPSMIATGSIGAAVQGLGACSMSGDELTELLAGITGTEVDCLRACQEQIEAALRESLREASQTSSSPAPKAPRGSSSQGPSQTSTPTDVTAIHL
SFEPRNLLSVFED [L10V]: 0.0829
SFEPCNLLSLFED [R5C]: 0.0638
SFEPRNLLSLFMD [E12M]: 0.0519
SFEPRNLLYLFED [S9Y]: 0.0598
SFEPRNLLSLFEV [D13V]: 0.0551
SFEPRNLLSLAED [F11A]: 0.137
MFEPRNLLSLFED [S1M]: 0.168
SFEPRNLLPLFED [S9P]: 0.129

Set 3
Target: Ras GTPase-activating protein-binding protein 1, full length (G3BP1, Homo sapiens, UniProt Q13283)
Sequence of UniProt Q13283 (whole entry, looked up): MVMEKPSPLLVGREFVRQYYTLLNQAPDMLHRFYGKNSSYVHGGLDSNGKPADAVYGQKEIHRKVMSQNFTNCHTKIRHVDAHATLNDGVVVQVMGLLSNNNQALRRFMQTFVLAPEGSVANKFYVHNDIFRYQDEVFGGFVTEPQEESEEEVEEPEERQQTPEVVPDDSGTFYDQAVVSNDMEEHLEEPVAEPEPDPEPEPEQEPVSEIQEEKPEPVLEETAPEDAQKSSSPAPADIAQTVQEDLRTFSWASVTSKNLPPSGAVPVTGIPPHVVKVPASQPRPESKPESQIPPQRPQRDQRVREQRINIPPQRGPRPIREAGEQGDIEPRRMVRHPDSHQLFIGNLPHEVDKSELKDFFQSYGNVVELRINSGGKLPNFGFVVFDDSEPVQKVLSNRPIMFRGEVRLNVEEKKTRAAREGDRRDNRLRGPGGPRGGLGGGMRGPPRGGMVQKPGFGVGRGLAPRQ
Technique: RNA Bind-n-Seq
Form: RNA
Medium: in vitro
Tested at: 200 nM
Notes: whole 134-nt RNA, ends assumed
With: 150 mM KCl
Baseline: input library
Direction: higher = stronger binding
Quantity: log2 enrichment
Constant ends, left off below: GGGAGUUCUACAGUCCGACGAUC … UGGAAUUCUCGGGUGUCAAGG
CUCAAGUCCUGUGCUACACAUCGUAUGUACCGAAUCGGGAGGGGAGGGGAGGGAAAGUAUUAUGUUACGCCGUUCGGAUCUGCACUUCCA: 1.47
UGAAAAUGCUUUCAUGUUAAUUGUGUACACACAUUUCAUCUGUAUCCCUGUUUCUUUUCUCCCUACAGAAACAUAUGAGGAUUUUGAUAC: 0.0226
AGUCCUGUGCUACACAUCGUAUGUACCGAAUCAAAUUUUUAAAUUUAAAUUUUUAAAAAAGUAUUAUGUUACGCCGUUCGGAUCUGCACU: -1.78
AGUCCUGUGCUACACAUCGUAUGUACCGAAUCGGGGCCCCGGGGCCCCGGGGCCCCGGAAAGUAUUAUGUUACGCCGUUCGGAUCUGCAC: 0.874
CCUGUGCUACACAUCGUAUGUACCGAAUCGGCCCCCCGGGCCCCCCGGGGCCCCCCGGGGAAAGUAUUAUGUUACGCCGUUCGGAUCUGC: -0.943
CACAGACAACACGCACCCACACAGACACAGAGGGAAGGGGUUGGGAUGGGGACAGGCUGCACAGCAGGGCGGGGUAGGACCCCAGCCCCU: 1.68
CUCAAGUCCUGUGCUACACAUCGUAUGUACCGAAUCGGUUGGGUUGGUUGGGGAAAGUAUUAUGUUACGCCGUUCGGAUCUGCACUUCCA: 0.0773
ACCAUGCAGGUGGGCAUCUUUGGGAAGUGGGGCAAGGGGGGGAUAGGGAGGGGGGUGACACUUUGGGAACAGGUGGUCCCAGGUCGUUUC: 1.03

Set 4
Compound: CS(=O)(=O)NCC[C@H](NC(=O)c1cncc2c1cnn2-c1ccc(F)cc1)c1ccnc(S(C)(=O)=O)c1
Tested at: 1 µM
Quantity: remaining binding
PIP4K2B (Homo sapiens, UniProt P78356); cell-free assay, competition with immobilised ligand: 100%
SGK2 (Homo sapiens, UniProt Q9HBY8); cell-free assay, competition with immobilised ligand: 94%
CAMKK2 (Homo sapiens, UniProt Q96RR4); cell-free assay, competition with immobilised ligand: 100%
HIPK3 (Homo sapiens, UniProt Q9H422); cell-free assay, competition with immobilised ligand: 100%
MAPKAPK5 (Homo sapiens, UniProt Q8IW41); cell-free assay, competition with immobilised ligand: 100%
Macrophage colony-stimulating factor 1 receptor, autoinhibited (CSF1R, Homo sapiens, UniProt P07333); cell-free assay, competition with immobilised ligand: 100%
VRK2 (Homo sapiens, UniProt Q86Y07); cell-free assay, competition with immobilised ligand: 100%
MAPKAPK2 (Homo sapiens, UniProt P49137); cell-free assay, competition with immobilised ligand: 100%
EGFR (Homo sapiens, UniProt P00533, del747-752/P753S); cell-free assay, competition with immobilised ligand: 71%
FLT3 (Homo sapiens, UniProt P36888, D835Y); cell-free assay, competition with immobilised ligand: 97%
RIPK4 (Homo sapiens, UniProt P57078); cell-free assay, competition with immobilised ligand: 88%
FER (Homo sapiens, UniProt P16591); cell-free assay, competition with immobilised ligand: 100%
DAPK3 (Homo sapiens, UniProt O43293); cell-free assay, competition with immobilised ligand: 100%
SIK1 (Homo sapiens, UniProt P57059); competition binding: 100%
Cyclin-dependent kinase 4, with cyclin D3 (CDK4, Homo sapiens, UniProt P11802); cell-free assay, competition with immobilised ligand: 95%
FLT3 (Homo sapiens, UniProt P36888, K663Q); cell-free assay, competition with immobilised ligand: 100%
FLT3 (Homo sapiens, UniProt P36888); cell-free assay, competition with immobilised ligand: 93%

Repeated from above (set 4):
CAMKK2 (Homo sapiens, UniProt Q96RR4); cell-free assay, competition with immobilised ligand: 100%
Cyclin-dependent kinase 4, with cyclin D3 (CDK4, Homo sapiens, UniProt P11802); cell-free assay, competition with immobilised ligand: 95%
VRK2 (Homo sapiens, UniProt Q86Y07); cell-free assay, competition with immobilised ligand: 100%
MAPKAPK2 (Homo sapiens, UniProt P49137); cell-free assay, competition with immobilised ligand: 100%
MAPKAPK5 (Homo sapiens, UniProt Q8IW41); cell-free assay, competition with immobilised ligand: 100%
